Measurements of several laboratories.
Compare with care: the assays were run in different laboratories. “And” joins repeats or separate records; there may be more than shown. ± marks the error that the study gave.
rep main protease: Replicase polyprotein 1ab, main protease (rep, Severe acute respiratory syndrome-related coronavirus, UniProt P0C6X7)

CC(=O)N[C@@H](Cc1cn([C@@H]2O[C@H](CO)[C@H](O)[C@H](O)[C@H]2O)nn1)C(=O)NCC(=O)N[C@@H](C)C(=O)NCC(=O)N[C@@H](C)C(=O)NCC(=O)N1CCC[C@H]1C(=O)N[C@@H](CO)C(=O)NCC(=O)N[C@@H](C)C(=O)NCC(=O)N[C@@H](C)C(=O)NCC(=O)N1CCC[C@H]1C(=O)N[C@@H](CO)C(=O)NCC(=O)N[C@@H](C)C(=O)NCC(=O)N[C@@H](C)C(=O)NCC(=O)N1CCC[C@H]1C(=O)N[C@@H](CO)C(=O)NCC(=O)N[C@@H](C)C(=O)NCC(=O)N[C@@H](C)C(=O)NCC(=O)N1CCC[C@H]1C(=O)N[C@@H](CO)C(=O)NCC(=O)N[C@@H](C)C(=O)NCC(=O)N[C@@H](C)C(=O)NCC(=O)N1CCC[C@H]1C(=O)N[C@@H](Cc1cn([C@@H]2O[C@H](CO)[C@H](O)[C@H](O)[C@H]2O)nn1)C(=O)NCC(=O)NCC(=O)NCC(=O)NCC(N)=O
inhibition potency (ctxB, pentamer (Vibrio cholerae, UniProt P01556); concentration not given; baseline: galactose): 60 fold

CC[C@H](C)[C@H](NC(=O)[C@H](CC(C)C)NC(=O)[C@H](Cc1ccc(OP(=O)(O)O)cc1)NC(=O)[C@H](CCC(=O)O)NC(=O)[C@H](CC(=O)O)NC(=O)[C@H](C)NC(=O)[C@H](CC(=O)O)NC(=O)[C@@H](NC(=O)[C@H](CC(C)C)NC(=O)CCCC[C@@H]1SC[C@@H]2NC(=O)N[C@@H]21)C(C)C)C(=O)N1CCC[C@H]1C(=O)N[C@@H](CCC(N)=O)C(=O)N[C@@H](CCC(N)=O)C(=O)NCC(=O)O
kon (Secreted effector protein (Yersinia pestis, UniProt O68720); binding): 34.9 M⁻¹ s⁻¹

Cc1ccc(N)cc1C(=O)N[C@H](C)c1cccc2ccccc12
thermal shift (ΔTm) (Replicase polyprotein 1a, papain-like protease (Severe acute respiratory syndrome coronavirus 2, UniProt P0DTC1); binding; 10 µM): 5.6 °C and 8 °C and 5.4 °C

CC(C)C[C@@H]1NC(=O)[C@H](CCCNC(=N)N)NC(=O)[C@@H]2CCCN2C(=O)[C@@H]2CSSC[C@H](NC(=O)CNC(=O)[C@@H]3CCCN3C(=O)[C@H](CCCCN)NC(=O)[C@H](CC(=O)O)NC(=O)[C@@H](NC(=O)CN)C(C)C)C(=O)N[C@@H](CCCNC(=N)N)C(=O)N[C@@H](Cc3ccc(O)cc3)C(=O)N[C@@H](CC(C)C)C(=O)N[C@@H](Cc3ccccc3)C(=O)NCC(=O)NCC(=O)N[C@H]3CSSC[C@H](NC(=O)CNC1=O)C(=O)N[C@@H](CCCCN)C(=O)NCC(=O)N[C@@H](CCCCN)C(=O)NCC(=O)N[C@@H](Cc1c[nH]cn1)C(=O)N[C@@H](CC(=O)O)C(=O)N[C@@H](Cc1ccc(O)cc1)C(=O)N[C@H](C(=O)N[C@@H](C)C(=O)N[C@@H](Cc1c[nH]c4ccccc14)C(=O)N[C@@H](CC(=O)O)C(=O)NCC(=O)N[C@H](C(=O)N[C@@H](Cc1ccccc1)C(=O)N[C@@H](CO)C(=O)N[C@@H](CC(=O)O)C(=O)O)[C@@H](C)O)CSSC[C@H](NC(=O)[C@H](CC(=O)O)NC(=O)[C@H](CC(=O)O)NC(=O)[C@H](CC(=O)O)NC(=O)[C@H](CO)NC(=O)[C@H](CCCCN)NC3=O)C(=O)N2
steady-state inactivation V0.5 (Sodium channel protein type 10 subunit alpha (SCN10A, Homo sapiens, UniProt Q9Y5Y9); 1 µM): -29.9 ± 1.3 mV

CC(=O)NCCOCCOCCOCCn1cc(CNC(=O)c2cc(O[C@H]3O[C@H](CO)[C@H](O)[C@H](O)[C@H]3O)cc([N+](=O)[O-])c2)nn1
Hill slope (ctxB (Vibrio cholerae, UniProt P01556); binding): -1.2

CC(C)(C)OC(=O)C[C@H](NC(=O)OCc1ccccc1)C(=O)CBr
time to irreversible covalent complex (rep main protease; covalent inhibitor; thioether formation): > 6 h

CC[C@H](C)[C@@H]1NC(=O)[C@H](CCCNC(=N)N)NC(=O)[C@H](CO)NC(=O)[C@H](CCC(=O)O)NC(=O)[C@H](CC(=O)O)NC(=O)CNC(=O)CNC(=O)[C@H]([C@@H](C)O)NC(=O)[C@H](Cc2ccccc2)NC(=O)[C@H](CO)NC(=O)[C@H]([C@@H](C)O)NC(=O)[C@H](C)NC(=O)[C@@H]2CSSC[C@@H](C(=O)N[C@@H](Cc3ccc(O)cc3)C(=O)N[C@@H](Cc3ccccc3)C(=O)N[C@H](C(=O)N[C@H](C(=O)NCC(=O)O)[C@@H](C)O)[C@@H](C)O)NC(=O)[C@H]([C@@H](C)O)NC(=O)[C@H](CSSC[C@H](NC(=O)[C@H](CCC(=O)O)NC(=O)[C@H](CO)NC(=O)[C@H](CCCCN)NC(=O)[C@H](Cc3ccc(O)cc3)NC(=O)[C@@H]3CCCN3C(=O)[C@H](Cc3ccccc3)NC(=O)[C@H](CCCCN)NC(=O)[C@H](CCCNC(=N)N)NC(=O)[C@H](CCCCN)NC(=O)[C@H](CCCCN)NC(=O)[C@H](Cc3ccc(O)cc3)NC(=O)[C@@H]3CCCN3C(=O)[C@@H](NC(=O)[C@H](CC(=O)O)NC(=O)[C@H](CCCCN)NC(=O)[C@H](CCCCN)NC(=O)[C@@H](NC(=O)[C@@H](NC(=O)[C@@H](N)CCC(=O)O)C(C)C)[C@@H](C)CC)[C@@H](C)O)C(=O)N[C@@H](CC(C)C)C(=O)N[C@@H](CCCCN)C(=O)N[C@@H](C)C(=O)N2)NC(=O)[C@H](CCCCN)NC(=O)[C@H](Cc2ccccc2)NC(=O)[C@H](Cc2ccccc2)NC(=O)CNC(=O)[C@@H]2CCCN2C(=O)[C@H](CCCCN)NC(=O)CNC(=O)[C@H](CCC(=O)O)NC(=O)[C@H](CCC(N)=O)NC1=O
Hill slope (Potassium voltage-gated channel subfamily KQT member 5 (KCNQ5, Homo sapiens, UniProt Q9NR82); potassium current, whole-cell patch clamp; HEK-293T): 1.12 ± 0.06

COc1cc([N+](=O)[O-])cc(/C=N/NC(=O)[C@H]2COc3ccccc3O2)c1O
phosphatase activity (uncharacterized protein (Candidatus Liberibacter solanacearum, UniProt A0A094YYW1); inhibitor; concentration not given, outcome inhibited; baseline: mock): inhibited

CS(=O)(=O)NCC1CCOC2(CCN(C(=O)Cc3ccccc3)CC2)C1 (centres unmarked)
nsP2 ATPase inhibition (Polyprotein P1234, nsP2 (Chikungunya virus, UniProt Q8JUX6); nsP2 ATPase activity, inhibitor, ADP-Glo; high micromolar): inactive

O=C1SCCC1NC(C(=O)NCc1ccccc1)C1CC1 (centres unmarked)
Km (Thiosulfate sulfurtransferase (TST, Homo sapiens, UniProt Q16762); activator, measured: potassium cyanide; 34.2 µM, with: sodium thiosulfate 60 mM): 5.5 ± 0.87 mM

CC(C)C[C@H](NC(=O)OCc1ccccc1)C(=O)N[C@@H](C[C@@H]1CCNC1=O)C(O)S(=O)(=O)O (some centres unmarked)
ΔTm (rep main protease; thermal stability): 9.78 °C

For quick reference, copied from above:
CC(C)(C)OC(=O)C[C@H](NC(=O)OCc1ccccc1)C(=O)CBr
time to irreversible covalent complex (rep main protease; covalent inhibitor; thioether formation): > 6 h
